Experimental data collected from several papers.
Lines come from different studies, so protocols differ. Values joined by “and” are separate records of one study, mostly repeats; a detail may differ. ± marks the error that the study gave. Converted amounts (≈) assume the structure as drawn.

SMILES	organism	test	test system	conditions	how to read	measurement	result
C[C@H]1O[C@@H](O[C@H]2CC[C@@]3(C)[C@H](C2)C[C@@H]2O[C@]24[C@@H]3C[C@@H](O)[C@]2(C)[C@@H](C3=CC(=O)OC3)CC[C@@]24O)[C@H](O)[C@H](O)[C@@H]1O[C@@H]1O[C@H](CO)[C@@H](O)[C@H](O)[C@H]1O	Oncopeltus fasciatus	HPLC-UV	adult whole body	diet, 0.58 mg/g dry diet	–	sequestered amount	0.07 mg/g dry mass
Cc1nc2cccc(OCC(C)(C)C(=O)NC(C)C)c2c(N)c1C(=O)[O-].[Na+]	Salmonella typhimurium	–	TA100	2.0 mg per plate, without S9, preincubation	–	revertant colonies per plate	121 ± 4
CC[C@H](C)[C@H](NC(=O)[C@H](CCCCN)NC(=O)[C@H](CCCCN)NC(=O)[C@H](Cc1ccccc1)NC(=O)[C@H](Cc1ccccc1)NC(=O)[C@H](CCCCN)NC(=O)[C@H](CCCCN)NC(=O)[C@H](Cc1ccccc1)NC(=O)[C@H](CCCNC(=N)N)NC(=O)[C@@H](N)CCCCN)C(=O)N[C@@H](CCCCN)C(=O)N[C@@H](CCCCN)C(=O)N[C@@H](CO)C(=O)N[C@H](C(=O)N[C@@H](CCCCN)C(=O)N[C@@H](CCCCN)C(=O)N[C@@H](CCCNC(=N)N)C(=O)N[C@H](C(=O)N[C@@H](CCCCN)C(=O)N[C@@H](CCCCN)C(=O)N[C@@H](CC(C)C)C(=O)N[C@@H](Cc1ccccc1)C(=O)N[C@@H](CCCCN)C(=O)N[C@@H](CCCCN)C(=O)N1CCC[C@H]1C(=O)N[C@@H](CCCNC(=N)N)C(=O)N[C@H](C(=O)N[C@H](C(=O)N1CCC[C@H]1C(=O)N[C@H](C(=O)N[C@@H](CO)C(=O)N[C@H](C(=O)N1CCC[C@H]1C(=O)N[C@@H](Cc1ccccc1)C(=O)O)[C@@H](C)CC)[C@@H](C)CC)[C@@H](C)CC)C(C)C)C(C)C)C(C)C	Escherichia coli	MIC after serum incubation	E24	0 h, 37 °C, together with: 25% mouse serum	–	MIC	4 µg/mL (≈ 0.948 µM)
C#CCN1C(=O)C(CC#C)(C(=O)OCC)Oc2ccccc21 (centres unmarked)	Triticum aestivum	no effect, hydroponic germination	seedlings	50 µg/mL, 4 days	–	bud growth	no effect
CCN(CC)C(=O)CC(NC(=O)CCc1ccccc1)C(=O)NC(Cc1ccc(F)cc1)C(=O)NC(Cc1ccc(F)cc1F)C(=O)C1(C)CO1 (centres unmarked)	Trypanosoma brucei brucei	–	HepG2 cells, Lister 427	–	reference: HepG2 CC50 over T. brucei EC50	selectivity index	> 80 and 86
O=C(Oc1cc(OC(=O)c2cc(O)c(O)c(O)c2)c2ccccc2c1)c1cc(O)c(O)c(O)c1	herpes simplex virus 2	RT-qPCR	HeLa, acyclovir-resistant	–	reference: CC50 over IC50	therapeutic index	31.6
CCCCCC(=O)NC(CC(=O)N(CC)CC)C(=O)NC(Cc1ccc(F)cc1)C(=O)NC(Cc1ccc(F)cc1F)C(=O)C1(C)CO1 (centres unmarked)	Trypanosoma brucei brucei	–	HepG2 cells, Lister 427	–	reference: HepG2 CC50 over T. brucei EC50	selectivity index	36
CC1(F)CN(C(=O)Cn2c(=O)c(C(=O)NCc3ccc(Cl)cc3)cc3nc(N4CCN(CCN)C4=O)cnc32)C1	herpes simplex virus 2	cytopathic effect	G	–	reference: CC50 over EC50	selectivity index	> 52.3

Excerpt of the above:
SMILES	organism	test	test system	conditions	how to read	measurement	result
Cc1nc2cccc(OCC(C)(C)C(=O)NC(C)C)c2c(N)c1C(=O)[O-].[Na+]	Salmonella typhimurium	–	TA100	2.0 mg per plate, without S9, preincubation	–	revertant colonies per plate	121 ± 4
